{"data": "Assay results from different studies", "note": "A part holds a random share of what one study measured.", "UniProt Q9UBE8, sequence (whole entry, looked up)": "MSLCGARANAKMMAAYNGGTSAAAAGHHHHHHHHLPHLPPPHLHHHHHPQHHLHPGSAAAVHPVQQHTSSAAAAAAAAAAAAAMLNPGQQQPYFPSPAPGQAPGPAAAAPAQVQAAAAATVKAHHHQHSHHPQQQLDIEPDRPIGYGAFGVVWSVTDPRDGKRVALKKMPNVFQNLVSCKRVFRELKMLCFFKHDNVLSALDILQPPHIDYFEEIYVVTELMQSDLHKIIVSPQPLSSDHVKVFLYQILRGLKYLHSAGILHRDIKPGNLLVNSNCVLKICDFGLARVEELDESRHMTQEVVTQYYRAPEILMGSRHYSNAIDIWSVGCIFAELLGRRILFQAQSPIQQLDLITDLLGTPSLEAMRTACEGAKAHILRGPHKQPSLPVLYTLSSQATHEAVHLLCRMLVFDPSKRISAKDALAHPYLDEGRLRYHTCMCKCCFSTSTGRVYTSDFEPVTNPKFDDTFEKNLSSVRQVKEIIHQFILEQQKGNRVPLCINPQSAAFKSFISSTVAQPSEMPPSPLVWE"}
{"data": "Block 1", "target": "Histone acetyltransferase KAT6A, winged helix 2, GST fusion (KAT6A, Homo sapiens, UniProt Q92794, residues 85-181)", "technique": "protein binding microarray", "form": "double-stranded DNA, one strand shown", "matrix": "in vitro", "tested at": "not given", "notes": "8-mer, flanks averaged, mean of 2 arrays, mostly near background", "relative to": "not given", "reading": "higher = stronger binding", "Residues (chain)": "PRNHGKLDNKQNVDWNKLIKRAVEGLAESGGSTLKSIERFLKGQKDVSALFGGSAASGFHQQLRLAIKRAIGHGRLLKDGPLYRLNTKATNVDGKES"}
{"Oligonucleotide": "CGAATAAA", "E-score": 0.00224}
{"Oligonucleotide": "AAGCCCTC", "E-score": -0.0563}
{"Oligonucleotide": "ACCAACAG", "E-score": -0.12}
{"Oligonucleotide": "ACCCCCGC", "E-score": -0.015}
{"Oligonucleotide": "ACAATTGA", "E-score": -0.0267}
{"Oligonucleotide": "ATGCAAAG", "E-score": 0.00892}
{"Oligonucleotide": "GGCTTCGA", "E-score": 0.0922}
{"Oligonucleotide": "ATAGCCAC", "E-score": -0.0744}
{"data": "Block 2", "target": "Sal-like protein 4, full length isoform B (SALL4, Homo sapiens, UniProt Q9UJQ4-2, residues 1-616)", "technique": "universal PBM", "form": "double-stranded DNA, one strand shown", "matrix": "in vitro", "tested at": "not given", "notes": "8-mer, flanks averaged, mean of replicates", "reading": "higher = stronger binding"}
{"Oligonucleotide": "CAAAGTTA", "E-score": 0.239}
{"Oligonucleotide": "CGAATTGC", "E-score": -0.0669}
{"Oligonucleotide": "ACATACGC", "E-score": 0.0325}
{"Oligonucleotide": "CATAACCA", "E-score": 0.263}
{"Oligonucleotide": "TCAATAAA", "E-score": 0.392}
{"Oligonucleotide": "AAAGTGTG", "E-score": 0.0386}
{"Oligonucleotide": "AGTCGGCA", "E-score": -0.161}
{"Oligonucleotide": "AACTGATT", "E-score": 0.0952}
{"data": "Block 3", "target": "RNA binding protein fox-1 homolog 2, RRM domain, GST-SBP tag (RBFOX2, Homo sapiens, UniProt O43251-10, residues 100-194)", "technique": "RNA Bind-n-Seq", "form": "RNA", "matrix": "in vitro", "tested at": "365 nM", "notes": "natural RNA segment, single round, ends assumed", "relative to": "no-protein control", "reading": "higher = stronger binding", "shared flanks, not repeated": "GGGAGUUCUACAGUCCGACGAUC … UGGAAUUCUCGGGUGCCAA", "Residues (chain)": "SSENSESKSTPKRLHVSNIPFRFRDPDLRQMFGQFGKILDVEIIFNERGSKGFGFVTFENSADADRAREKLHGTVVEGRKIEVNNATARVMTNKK"}
{"Oligonucleotide": "CAAACCACCCCAUCCUCACAGCGAGCUUAUCCCUACCUCUGCGUGACACUGAGCAGGCAGAUUAGCAAUCUCCCAGGUCAUGCAGCAUCUUGAAACAAAGUAAGAAUUCU", "RBNS enrichment (R)": 0.734}
{"Oligonucleotide": "UUUCCUGGCACGAAAAGUAGCCGCUCUGGUUGAAGCUUUGCUUAUUGUAACAGGCUUUUAUUUCCAGGUAAUAUGUCUUGGAAGACUUAAUUCUGAUUAGAGAUAUAGAU", "RBNS enrichment (R)": 0.393}
{"Oligonucleotide": "CACAAGGCGCUCAUGGGUUUCAGGGAGUGGGAGGGACUGUUUUUCUCCGUUGCUCUUCCUCCUUGUUUUCUGGGUGUUUUCCUGCAGAGAUCUUUUGGGUUUAUUUUGAG", "RBNS enrichment (R)": 1.63}
{"Oligonucleotide": "GGAAUUCUGAAUUCUUAGAUUUGAUUAUCCCAGAUCAUUUUUGCUAAGAAAAAUUCUUAUUUCUUUUUUUCACAGUGAACAUAAUCCUAAAUCCUUGGAUAUUUUUAGAA", "RBNS enrichment (R)": 0.51}
{"Oligonucleotide": "AAGUGGUCACUGCAUCUAGUAAGAUUAUAUUUCCAGUACACUUCCUUAGGGCAGAAACACCAUCCUAUCAGGUUUGGUCAGUCCCUUCUUCAUGAAGGGAGUCAUGGGGA", "RBNS enrichment (R)": 0.349}
{"Oligonucleotide": "ACAACUUUGCAGAAAGAGACACAGCUGGCUCUCUGCAGUGGUGUCCUCUCUGUUGCGUGUGUCGAGAGACACUGACAGUUUCGUGUAACUCCCAGGAAUACUGUACCUGU", "RBNS enrichment (R)": 0.355}
{"Oligonucleotide": "AGUGUGGUCAGUAAGGAGAGUUGGGGUGGUGCCUUCCAGCCUGCCCGCCAGUCCAUCCUAGACACUCCCAGAGGCUGCUAGCUCCGCCCCUCUGGCAUGGCUUUCCUUUC", "RBNS enrichment (R)": 0.441}
{"Oligonucleotide": "AUGUGGGUAUAGCUCAGGGUAAGCUGCUCUGAGGUAAAGGUCCAUGAACCCUGCCCCACUCCUGUCAGCCCCUCAUCAGCCUUUUCAGCAGGUUCCAGUGCCUGACUUGG", "RBNS enrichment (R)": 0.333}
{"data": "Other studies, line by line"}
{"Structure (SMILES)": "CN(C)CCCn1cc(C2=C(c3c[nH]c4ccccc34)C(=O)NC2=O)c2ccccc21", "target": "Serine/threonine-protein kinase NLK (NLK, Homo sapiens, UniProt Q9UBE8)", "assay": "enzyme activity, inhibitor", "setting": "0.5 µM", "scale": "relative to: control", "endpoint": "remaining activity", "result": "94%"}
